Experimental data of several laboratories.
A part holds a random share of what one study measured. Positions count from the first letter of the parent shown.

Series 1 — technique: universal PBM; form: double-stranded DNA, one strand shown; matrix: in vitro; tested at: 600 nM; reading: higher = stronger binding
Target: Sal-like protein 4, full length isoform A (SALL4, Homo sapiens, UniProt Q9UJQ4, residues 1-1053)
UniProt Q9UJQ4, sequence (whole entry, looked up): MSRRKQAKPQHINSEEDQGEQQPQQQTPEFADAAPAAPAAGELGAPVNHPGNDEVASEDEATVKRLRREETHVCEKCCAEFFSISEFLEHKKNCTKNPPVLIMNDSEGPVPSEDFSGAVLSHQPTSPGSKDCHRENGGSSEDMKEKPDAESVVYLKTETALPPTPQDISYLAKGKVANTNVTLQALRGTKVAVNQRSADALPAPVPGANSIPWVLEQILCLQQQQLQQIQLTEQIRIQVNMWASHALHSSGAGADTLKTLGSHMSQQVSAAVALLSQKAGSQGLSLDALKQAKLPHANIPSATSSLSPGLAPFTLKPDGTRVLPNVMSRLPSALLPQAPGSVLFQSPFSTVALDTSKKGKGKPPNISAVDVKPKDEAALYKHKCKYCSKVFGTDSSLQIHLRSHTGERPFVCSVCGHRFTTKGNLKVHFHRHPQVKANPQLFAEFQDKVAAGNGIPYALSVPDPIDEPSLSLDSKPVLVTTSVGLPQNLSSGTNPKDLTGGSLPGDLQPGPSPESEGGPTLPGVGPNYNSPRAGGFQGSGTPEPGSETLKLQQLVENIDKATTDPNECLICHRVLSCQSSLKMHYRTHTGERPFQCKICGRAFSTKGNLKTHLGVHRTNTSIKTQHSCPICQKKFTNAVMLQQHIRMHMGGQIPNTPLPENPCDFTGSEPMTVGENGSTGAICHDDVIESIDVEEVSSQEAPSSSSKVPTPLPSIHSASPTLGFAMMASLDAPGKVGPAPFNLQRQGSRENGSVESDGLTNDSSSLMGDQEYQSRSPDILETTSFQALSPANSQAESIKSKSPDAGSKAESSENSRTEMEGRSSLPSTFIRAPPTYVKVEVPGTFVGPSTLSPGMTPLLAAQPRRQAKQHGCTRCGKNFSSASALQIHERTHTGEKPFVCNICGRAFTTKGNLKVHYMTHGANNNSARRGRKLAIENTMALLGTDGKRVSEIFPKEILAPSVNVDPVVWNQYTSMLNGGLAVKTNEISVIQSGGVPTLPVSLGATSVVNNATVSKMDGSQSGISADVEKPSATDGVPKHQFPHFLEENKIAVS
Notes: 8-mer, flanks averaged, mean of replicates
Oligonucleotide	E-score
ACTGGGTG	-0.289
GACTCCTA	-0.188
ACCTTTGA	0.112
CACGGATA	0.127
GAGAGCCC	-0.341
AACAGGCA	0.0139
CGAAAGAC	-0.0389
CTATCGGC	-0.0909
GCCTTCGA	-0.162
GCTTAAAC	0.0638
AAAGTGCT	0.143
ACGCATAC	0.0431
ATTATCAG	0.215
GATCAAAA	0.167
ACCGTCTC	-0.0179
ACTCTGCG	-0.116
CGTGTTAG	-0.00142
AAAGCGAA	0.0807

Series 2 — technique: RNA Bind-n-Seq; form: RNA; matrix: in vitro; tested at: 365 nM; baseline: no-protein control; reading: higher = stronger binding
Target: RNA binding protein fox-1 homolog 2, RRM domain, GST-SBP tag (RBFOX2, Homo sapiens, UniProt O43251-10, residues 100-194)
Notes: natural RNA segment, single round, ends assumed
Target sequence (chain): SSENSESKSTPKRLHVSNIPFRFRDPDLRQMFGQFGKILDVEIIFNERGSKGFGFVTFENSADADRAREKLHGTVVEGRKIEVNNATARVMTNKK
Oligonucleotide	RBNS enrichment (R)
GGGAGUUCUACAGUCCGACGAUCCCCUUUAACAAGUUGAGUAAAAAUAAAAGGUAUUUUUUAGUCAAUGUGUUCCAUGAUUUUGCUUAAAUUAAUACUUUUAAGUAAUGGAACUUUUUUCAAAGGCAAAUUUAUGGAAUUCUCGGGUGCCAA	0.811
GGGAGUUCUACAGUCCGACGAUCUCAGGUUCCUGUGAUGCAGGCUGACAGCCAGGGAGCACAACAGAUGCUGGACAAAGAUGAAAGCGACCUUCAAGUCUCCCCCCAAGAUGGAACACUCAGUGCCGUAGCCCUGGAAUUCUCGGGUGCCAA	1.08
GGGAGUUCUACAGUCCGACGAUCCGGCUCGGCCGCCACCCAGGACGCUUCCAGACCACCUGCCAGCCAUCUCGUGGAGAACAUAGAUGGCAGAAAUCUUGCAGCUUUUUUAUUUAAAAGAAAAGAAAAAAAAGUGGAAUUCUCGGGUGCCAA	0.332
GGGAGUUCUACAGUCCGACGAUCUGGGGUCUCCUGCUUCAAGCAGGCUUCUCCCACUCCAAUCCCCUGCCCCAUCUCCCCAUAGCCUGAGUGAUGAGGUGGCCCCAGAGCUGAUCUCUGCUGCUGUGUCUUUAUGGAAUUCUCGGGUGCCAA	0.472
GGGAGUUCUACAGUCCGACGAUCCCAAGGGUCCCUGUGUGUGUGUAUGUGUGUGCAUGUGUGCGUGUCUCCAUGUGCGUCCAUAUUUAACAUGUAAAAAUGUCCCCCCCGCUCCGUCCCCCAAACAUGUUGUAUGGAAUUCUCGGGUGCCAA	0.349
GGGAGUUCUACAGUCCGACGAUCACUGGGGACCCGAGCCAGCCAGGCCAUGUUUGCAGGGAAGGAUGCCAAGCAGGGCCUGCCCUGACAGUUCCACUUUACUCCCAUAUUCUCCCCGUGCUCCUGGCGAGCCUUGGAAUUCUCGGGUGCCAA	0.668
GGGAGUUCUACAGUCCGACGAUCGUUCAACGCUCAGCUUUUCCGAAAACCUAAAGCUUGUGUUCUCUUUGCUUUGACUGCAAAUUGUACUGCUCUUGUUUUUUUAAUUUUUUUCUUGGUCAUGGUCUGUAAAUUGGAAUUCUCGGGUGCCAA	0.84
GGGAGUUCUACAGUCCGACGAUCAUAGAUUUCUAAUUUGUCCUACUCAUGUUAGGAGCAUUAUCUUUGAAGGUAAAACAUAGUGUAUCAUUGUGUAAACUCCCAGGCUUGAUGUAGCAGAAGAGAUCAUUUCUUGGAAUUCUCGGGUGCCAA	0.283
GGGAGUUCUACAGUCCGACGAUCCGUGAACCAACAGGGCCUGGCCUUCACUCCUCCAGGCCACAAUGCCCUGGGGUCAAGGGAAAGGAACUCUGUUAUCUUCUCAGAAUAAAUAUUACUGCCGCUCUAGAGGGUGGAAUUCUCGGGUGCCAA	0.786
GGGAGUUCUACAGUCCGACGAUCCCUCCAGAUAGCAAGAGGUUUCUAGGGAAGUCACCUCACAGCAGGCUUGCAGUAUGUCCAGCUGGUUGGCAAACACGAGGAAGCUGCAGGGCUGGACCAUGUGGCCAAGCUGGAAUUCUCGGGUGCCAA	0.563
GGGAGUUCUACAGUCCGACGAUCGGAAUUCUGAAUUCUUAGAUUUGAUUAUCCCAGAUCAUUUUUGCUAAGAAAAAUUCUUAUUUCUUUUUUUCACAGUGAACAUAAUCCUAAAUCCUUGGAUAUUUUUAGAAUGGAAUUCUCGGGUGCCAA	0.51
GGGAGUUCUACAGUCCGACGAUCGCACAGCGACCUCCAGGGCACCUCUGCGGAGUGACUAGCCACAGGCAGAGCUGCAUUGUGGUAUAUAUACUGAGAGAUCUGCAUUGUUCACCUGCCAGACUGGGAUUUUCUGGAAUUCUCGGGUGCCAA	0.401

Series 3 — technique: RNA Bind-n-Seq; form: RNA; matrix: in vitro; tested at: 100 nM; baseline: input RNA pool; reading: higher = stronger binding
Target: RING finger protein unkempt homolog, zinc fingers 1-6, SBP tag (UNK, Homo sapiens, UniProt Q9C0B0, residues 30-357)
UniProt Q9C0B0, sequence (30-357, looked up): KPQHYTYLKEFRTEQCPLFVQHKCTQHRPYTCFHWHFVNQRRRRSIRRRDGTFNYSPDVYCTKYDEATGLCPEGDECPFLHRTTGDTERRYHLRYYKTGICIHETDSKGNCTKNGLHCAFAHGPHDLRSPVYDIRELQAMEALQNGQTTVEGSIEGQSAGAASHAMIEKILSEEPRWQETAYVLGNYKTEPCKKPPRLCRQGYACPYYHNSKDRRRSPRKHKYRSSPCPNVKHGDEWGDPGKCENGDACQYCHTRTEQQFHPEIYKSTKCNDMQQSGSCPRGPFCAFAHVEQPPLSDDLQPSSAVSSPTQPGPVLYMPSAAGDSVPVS
Notes: RNA with constant flanks, vertebrate orthologous sites, ends assumed
Oligonucleotide	bound/input enrichment [ratio]
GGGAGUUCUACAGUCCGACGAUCUCUGUAUACUUUUAAAAAUACUUCCAUAUACGACAUGUUGGCUACUCAUACAUUUAAUCAUAUUUACGUAUCUAUUUUUUAUAAUAGCAGUGCAGAUUCAAAGGGGGCUCCUUUCAGGUUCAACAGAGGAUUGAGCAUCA	1
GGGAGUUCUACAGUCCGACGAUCAGAGAUGACCCCCAGUCCCACCUCUGUUUAUUCUGUAAACUACAACCUGUAAAUAAUGGUUAGCAUUCCUAUUGUAACAAAAUUAAUUUUUAUUAAAUAAAUUAUAUUUCCUAGUCUAAUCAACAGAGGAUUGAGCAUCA	0.899
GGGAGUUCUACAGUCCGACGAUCGUGCAAGGAGAUUAUUCCAACUAGUGAAUUUAUUAACAGUAAGUUGACAGCAAAAGCCAACAGGCAGCUUCAAGAUCCUCUAGUGAUCAUGACCGGAAACAUCCCAACAUGGCUGACUGACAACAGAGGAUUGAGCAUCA	0.346
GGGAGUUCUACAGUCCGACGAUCCUACAAUAAUGAAAAACCUACCAGGAAUUAUUUUAUUUUUCAUUUCCCCUUGGGCAUUCCUAGUCUUUUUCCCCCCAGGCAGAUCAUUCUGAGUGUGCGAGUGUGUGUGCACAUGUUACACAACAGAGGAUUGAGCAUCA	0.956
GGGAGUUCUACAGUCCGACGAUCUCAUUGUACUGCAAAAAUCAUCUUCGUUUUAAUUUAGCCACAGUGAUAACUAGUCUGCACUAGUAGAAUCAUUUACCUUUUAAAUUAUCUGCUUUGUCUGAUACCUGAAACACAUCAAAACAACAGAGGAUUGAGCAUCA	0.385
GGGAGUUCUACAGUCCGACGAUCGGGACGCUUUGAUGUAAAAAUUGAAGUUAAGAGCUGAUCACAAGCACAAAUCCUCCCCUCUAGCCAUUUAAUAAGUUAAAAAUUACAAAAACAAAACCUACUAGUCUUGAACAAACUGUCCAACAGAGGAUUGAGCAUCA	8.77
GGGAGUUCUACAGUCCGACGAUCGAGCUAAAGGAGUUAGCAUCUUUAUUUUUGUAUCAAAGAUAAGGGUUAUUUUGAAAUUAUUAGGAUUUUUACACAACUCUGAAAUCUGUUGCUUUUUGUAUAAACAAAUUGUUUGAUCUUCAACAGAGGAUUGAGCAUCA	0.958
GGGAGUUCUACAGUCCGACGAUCGUUGUGACCCAUUUAACAUACACAAAAAAUUAGCCAAAAAAAAUUUGCAUGUAAUUGACUUAGAUGAUGCCACUUUUCUGAGUGCAAAAUUCGGAAGACAGCUUGUACCUGGUUGGAAGCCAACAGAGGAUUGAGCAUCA	1.92
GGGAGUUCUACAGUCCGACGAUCAGCAACUCAAGGAUUGAGGACUGGUUUUACAAAUAUACCAAGUAGAUAUGGAACUAAUAAUAGAAUUGGACAACCAAGACCAUGAUAGACUCUAACUUAUUUUUAUGAGGAAUAUUGACUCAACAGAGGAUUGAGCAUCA	0.406
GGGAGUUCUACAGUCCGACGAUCGCGGGGAUGGCCCCAUCCCACCACUGUUUAUUCUGUAAACUUCAACCUGUACAUAACGUUUAGCAUUCCUAUUGUAACAAAAUUAAUUUUUACAAAAUAAAUUAUAUUUCCUAGUCUAAUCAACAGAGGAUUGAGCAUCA	0.632
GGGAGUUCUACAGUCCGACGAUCACUGUUGUUAAGCACUGUGUUCCAGACUGUGUCUGACUUAGUGUAACCUAGGAGAUUUUAUAGUUUUAUUUUAAUGAAAUCCUGAUUGACGCAGAGCAGUGGGGAGAACGGUCCCUUUUACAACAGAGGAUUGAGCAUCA	1.81

Series 4 — target: CCND3, cyclin fold, Cln2 fusion (human); technique: yeast growth competition, sequencing; matrix: yeast; notes: weak parent motif; baseline: not given; reading: higher = stronger binding
Parent: BRCA2 docking peptide (human); PSIKRNLLNEFDR; partner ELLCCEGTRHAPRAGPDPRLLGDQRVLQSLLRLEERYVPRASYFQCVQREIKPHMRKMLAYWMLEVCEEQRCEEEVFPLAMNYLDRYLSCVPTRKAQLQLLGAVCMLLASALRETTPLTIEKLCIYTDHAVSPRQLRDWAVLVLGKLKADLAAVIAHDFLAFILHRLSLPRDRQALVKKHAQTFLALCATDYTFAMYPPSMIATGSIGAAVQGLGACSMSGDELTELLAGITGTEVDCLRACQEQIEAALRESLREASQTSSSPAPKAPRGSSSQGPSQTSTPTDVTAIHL
Substitution	normalised enrichment score
R13H	0.0245
I3L	0.152
F11Y	0.122
N9L	0.15
L8Y	0.109
N6Y	0.0614
N6T	0.149
N9E	0.0864
R13L	0.0135
L7K	0.103
P1W	0.272
L7Q	0.201
F11H	0.0938
S2Y	0.124
I3P	0.151
D12M	0.176
L7S	0.0544
L7E	0.0685
R5L	0.0382
S2C	0.103
L7V	0.0239
R13I	0.324
F11W	0.0509
K4R	0.0801
N6R	0.182
